Experimental data collected from several papers.
Compare with care: the assays were run in different laboratories. Numbers after ± are the reported error.

SMILES	test	test system	setting	Cmax
Cc1nc(-c2ccc(OCC(C)C)c(C#N)c2)sc1C(=O)O	–	human male, plasma	oral, 80 mg once daily, day 7 or 21, arithmetic mean	1760 ng/mL
COc1ccc2nc([S@@+]([O-])Cc3ncc(C)c(OC)c3C)[nH]c2c1	–	human, CYP2C19 poor metabolizers, plasma	oral, 40 mg/day, day 5	3610 ± 2450 ng/mL
CC(C)[C@@H](C)[C@@]1(C)CC[C@]2(C)[C@H]3CC[C@@H]4[C@@]5(COC[C@@]4(C)[C@@H](OC[C@](C)(N)C(C)(C)C)[C@H](n4ncnc4-c4ccncc4)C5)C3=CC[C@@]2(C)[C@@H]1C(=O)O	–	human, both sexes, plasma	oral, 1250 mg day 1, then 750 mg days 2 and 3, day 3, geometric mean	934 ng/mL
CC[C@H](C)[C@H](NC(=O)[C@H](CC(C)C)NC(=O)[C@H](Cc1c[nH]c2ccccc12)NC(=O)[C@H](C)NC(=O)[C@@H](NC(=O)[C@H](Cc1ccccc1)NC(=O)[C@H](CC(=O)O)NC(=O)[C@H](CCCNC(=N)N)NC(=O)[C@H](C)NC(=O)[C@H](C)NC(=O)[C@H](CC(C)C)NC(=O)[C@H](C)NC(=O)[C@H](CC(=O)O)NC(=O)[C@H](CC(C)C)NC(=O)[C@@H](NC(=O)[C@@H](NC(=O)[C@H](C)NC(=O)[C@H](CC(C)C)NC(=O)[C@H](CCC(=O)O)NC(=O)[C@H](CO)NC(=O)[C@H](CO)NC(=O)[C@H](Cc1ccccc1)NC(=O)[C@@H](NC(=O)CNC(=O)[C@H](CCC(=O)O)NC(=O)CNC(=O)[C@@H](N)Cc1cnc[nH]1)[C@@H](C)O)[C@@H](C)O)[C@@H](C)CC)[C@@H](C)CC)C(=O)N[C@@H](C)C(=O)N[C@H](C(=O)N[C@@H](CCCCN)C(=O)N[C@H](C(=O)N[C@H](C(=O)N[C@@H](CC(=O)O)C(=O)N[C@@H](CCCCN)C(=O)N[C@@H](CCCCN)C(=O)N[C@@H](CCCCN)C(=O)N[C@@H](CCCCN)C(=O)N[C@@H](CCCCN)C(=O)N[C@@H](CCCCN)C(N)=O)[C@@H](C)O)[C@@H](C)CC)[C@@H](C)O	immunoaffinity LC-MS/MS	healthy human subjects, plasma	subcutaneous, 5 mg once weekly, day 36 after 6 doses, steady state, geometric mean	0.223 nM
CC(C)(Sc1ccncc1-c1ccc(C#N)c2ccccc12)C(=O)O	–	humans, male, normal renal function, fasted, plasma	oral, 15 mg	16.7 ng/mL
O=C(/C=C/c1cccc(S(=O)(=O)Nc2ccccc2)c1)NO	–	human severe liver dysfunction, plasma	intravenous, 400 mg/m^2, 30 min infusion, cycle 1 day -7	25000 ng/mL
CC(C)[C@H](C(=O)Nc1ccc(C(=O)NO)cc1)c1ccccc1	–	human, plasma	oral, 30 to 80 mg, individual values	540 to 3250 nM
COc1cc(Nc2ncc3c(n2)-c2ccc(Cl)cc2C(c2c(F)cccc2OC)=NC3)ccc1C(=O)O	–	human, plasma	oral, 40 mg twice daily, day 7, steady state geometric mean	1830 nM
Cc1nc2cccc(N)c2c(=O)n1C1CCC(=O)NC1=O (stereo not shown)	–	healthy adult human, plasma	oral, 3 mg, geometric mean, together with: rifampin 600 mg once daily	66 ng/mL
C=CC(=O)Nc1cc(Nc2ncc(C(=O)OC(C)C)c(-c3cn(C)c4ccccc34)n2)c(OC)cc1N(C)CCN(C)C	–	human, fasted	oral, 120 mg single dose, arithmetic mean	27.6 ng/mL
CCc1cc(/C(C)=N/OCc2ccc(C3CCCCC3)c(C(F)(F)F)c2)ccc1CN1CC(C(=O)O)C1	–	healthy human, plasma	oral, 4 mg, geometric mean, together with: fluconazole steady state	34 ng/mL
O=c1[nH]cc(F)c(=O)[nH]1	–	human, plasma	intravenous, 2400 mg/m^2 maintenance, cycle 1 without vorinostat, twice-daily cohort	11200 ± 5550 ng/mL
COCCCCn1c(C(=O)N(CC(C)C)[C@@H]2CNC[C@H](C(=O)N3CCOCC3)C2)nc2ccccc21	–	non-elderly human, plasma	oral, 80 mg once daily, day 7	754 ng/mL
Nc1ccn([C@@H]2O[C@H](CO)[C@@H](O)C2(F)F)c(=O)n1	–	human cancer patients, plasma	intravenous, 1000 mg/m^2, cycle 1 day 1, given alone	15100 ng/mL
Cc1ccc(NC(=O)c2ccc(CN3CCN(C)CC3)cc2)cc1Nc1nccc(-c2cncc(-c3oncc3C)c2)n1	–	older healthy human adults, plasma	oral, 325 mg single dose, fed, mean	7310 ng/mL
CC#CC(=O)N1CC[C@@H](n2c(=O)n(-c3ccc(Oc4ccccc4)cc3)c3c(N)ncnc32)C1	–	human, fasting, plasma	oral, 480 mg once daily, cycle 1 day 28	1940 ng/mL
CC(=O)c1c(C)c2cnc(Nc3ccc(N4CCNCC4)cn3)nc2n(C2CCCC2)c1=O	–	human patients, plasma	oral, 75 mg/m^2 single dose, day 1	92 ± 34 ng/mL
CN1CCN(c2ccc3nc(-c4c(N)c5c(F)cccc5[nH]c4=O)[nH]c3c2)CC1	–	human, plasma	oral, day 29, normalised to 200 mg dose, together with: erlotinib	219 ± 112 ng/mL
CO[C@H]1C[C@@H]2CC[C@@H](C)[C@@](O)(O2)C(=O)C(=O)N2CCCC[C@H]2C(=O)O[C@H]([C@H](C)C[C@@H]2CC[C@@H](O)[C@H](OC)C2)CC(=O)[C@H](C)/C=C(\C)[C@@H](O)[C@@H](OC)C(=O)[C@H](C)C[C@H](C)/C=C/C=C/C=C/1C	–	healthy adult human, blood	oral, 0.5 mg single dose, geometric mean, together with: ritonavir-containing 3D regimen	10.7 ng/mL

For quick reference, copied from above:
SMILES	test	test system	setting	Cmax
COc1ccc2nc([S@@+]([O-])Cc3ncc(C)c(OC)c3C)[nH]c2c1	–	human, CYP2C19 poor metabolizers, plasma	oral, 40 mg/day, day 5	3610 ± 2450 ng/mL
CC(C)[C@@H](C)[C@@]1(C)CC[C@]2(C)[C@H]3CC[C@@H]4[C@@]5(COC[C@@]4(C)[C@@H](OC[C@](C)(N)C(C)(C)C)[C@H](n4ncnc4-c4ccncc4)C5)C3=CC[C@@]2(C)[C@@H]1C(=O)O	–	human, both sexes, plasma	oral, 1250 mg day 1, then 750 mg days 2 and 3, day 3, geometric mean	934 ng/mL
CC[C@H](C)[C@H](NC(=O)[C@H](CC(C)C)NC(=O)[C@H](Cc1c[nH]c2ccccc12)NC(=O)[C@H](C)NC(=O)[C@@H](NC(=O)[C@H](Cc1ccccc1)NC(=O)[C@H](CC(=O)O)NC(=O)[C@H](CCCNC(=N)N)NC(=O)[C@H](C)NC(=O)[C@H](C)NC(=O)[C@H](CC(C)C)NC(=O)[C@H](C)NC(=O)[C@H](CC(=O)O)NC(=O)[C@H](CC(C)C)NC(=O)[C@@H](NC(=O)[C@@H](NC(=O)[C@H](C)NC(=O)[C@H](CC(C)C)NC(=O)[C@H](CCC(=O)O)NC(=O)[C@H](CO)NC(=O)[C@H](CO)NC(=O)[C@H](Cc1ccccc1)NC(=O)[C@@H](NC(=O)CNC(=O)[C@H](CCC(=O)O)NC(=O)CNC(=O)[C@@H](N)Cc1cnc[nH]1)[C@@H](C)O)[C@@H](C)O)[C@@H](C)CC)[C@@H](C)CC)C(=O)N[C@@H](C)C(=O)N[C@H](C(=O)N[C@@H](CCCCN)C(=O)N[C@H](C(=O)N[C@H](C(=O)N[C@@H](CC(=O)O)C(=O)N[C@@H](CCCCN)C(=O)N[C@@H](CCCCN)C(=O)N[C@@H](CCCCN)C(=O)N[C@@H](CCCCN)C(=O)N[C@@H](CCCCN)C(=O)N[C@@H](CCCCN)C(N)=O)[C@@H](C)O)[C@@H](C)CC)[C@@H](C)O	immunoaffinity LC-MS/MS	healthy human subjects, plasma	subcutaneous, 5 mg once weekly, day 36 after 6 doses, steady state, geometric mean	0.223 nM
